# Measurements pooled from the literature.
# Compare with care: the assays were run in different laboratories. “And” joins repeats or separate records; there may be more than shown. ± marks the error that the study gave.
SMILES,test,test system,conditions,how to read,endpoint,result
CC(C)(C(=O)N1CCOc2c(C#N)cncc2C1)C(F)F,measured: chest discomfort,human,"oral, 15 mg twice daily, 14 days, multiple ascending dose",,subjects with adverse event,12.5%
CNCCOC12CC3(C)CC(C)(CC(Cn4ncc(-c5ccc(N6CCc7cccc(C(=O)Nc8nc9ccccc9s8)c7C6)nc5C(=O)O)c4C)(C3)C1)C2,,"beagle dog, male, anaesthetised","intravenous bolus, 0.03 mg/kg, 90 min",relative to: baseline,PR interval change,-5 ms
CN1C[C@H](COc2nccc3c(NCc4ccco4)cc(Cl)nc23)OC1=O,,"rabbit, isolated Langendorff heart",dose not given,,effect on RR,negative
CCn1ncc2c1-c1cnc(N)c(c1)O[C@H](C)c1cc(F)ccc1-c1nn(C)nc1C2,,"female athymic nude mice, sample B PDX","oral, 15 mg/kg once daily for 1 days, 1 h",,unbound plasma concentration,1600 ± 104 nM
NC1(C(=O)N[C@@H](CCO)c2ccc(Cl)cc2)CCN(c2nc[nH]c3nccc2-3)CC1,"LC-MS/MS, non-compartmental","human, plasma",together with: enzalutamide,,Tmax,2 h and 4 h
CC(C)n1c(Nc2cccnc2)nc2cnc(Nc3ccc(N4CCN(C)CC4)cc3)nc21,measured: at least one TEAE,healthy male subjects,"oral, 100 mg, study, together with: itraconazole",,subjects with adverse event,78.6%
O=S(=O)(Nc1ccc(OC2CCOC2)nc1)c1cccc(Cl)c1O (centres unmarked),"colloidal aggregate formation, dynamic light scattering",50 mM potassium phosphate buffer,"200 µM, pH 7.0, 1% DMSO",higher = more aggregation,DLS scattered light intensity,896000 counts/s
O=C(COc1ccc(Cl)cc1)NC12CC(c3nnc([C@H]4C[C@@H](OC(F)(F)F)C4)o3)(C1)C2,,human both sexes,"oral, 45 mg once daily, 14 days",,participants maximum mild TEAE,100%
C[C@@H](Nc1cc(F)cc(F)c1)c1cc(C(=O)N(C)C)cc2c(=O)cc(N3CCOCC3)oc12,measured: Pneumonia,advanced solid tumour patients,"oral, dose not given, dose expansion",,patients discontinuing for AE,0%
COc1ccc2c(c1)CN(C(=O)CCN1CCC(Cc3ccccc3)CC1)CC[S@@+]2[O-],,"healthy male volunteers, urine","intravenous, 0.6 mg/kg",relative to: dose,urinary excretion,9.08%
NCCONC(=O)[C@@H]1CC[C@@H]2CN1C(=O)N2OS(=O)(=O)O,,"human, plasma","intravenous infusion, 1 g, days 7 to 9, multiple dosing, range of means",,Ctrough,2850 to 2930 ng/mL
Cc1cc(-c2ccc3cc[nH]c(=O)c3c2)ccc1O[C@H]1O[C@H](CO)[C@@H](O)[C@H](O)[C@@H]1O,,"male Sprague-Dawley rat, plasma","intravenous, 3 mg/kg, group mean",,terminal half-life,0.28 h
C[Si](C)(C)O[Si](C)(C)C,,octanol/air,25 °C,,"log KOA difference, dry minus wet octanol",0.27 log units
CNCc1ccc(-c2[nH]c3cc(F)cc4c3c2CCNC4=O)cc1,,patients,"oral, 600 mg twice daily, grade 5",,asthenia/fatigue incidence,0%
N#Cc1ccc2c(c1)[C@H]1CCCN(C(=O)c3ccc4[nH]cnc4c3)[C@H]1C2,,human,"80 mg, day 15",,minimum ACTH level,4.1 pmol/L
C=CC(=O)N1CCC(c2ccc(C(N)=O)c(-c3ccc(Oc4ccccc4)cc3)n2)CC1,,relapsed/refractory mantle cell lymphoma patients,"oral, 150 mg once daily, part, CTCAE v4.03",,serious treatment-related AE rate,0%
COc1cccc(OC)c1-c1cc(C(=O)NC2(C(=O)O)C3CC4CC(C3)CC2C4)nn1-c1ccc(C(=O)N(C)CCCN(C)CCCN(C)C(=O)CN2CCN(CC(=O)[O-])CCN(CC(=O)[O-])CCN(CC(=O)[O-])CC2)cc1C(C)C.[177Lu+3] (centres unmarked),,mouse HT-29 xenograft,"72 h, biodistribution",relative to: tumour over large intestine,tumour-to-large intestine ratio,58.2
COCCOc1cnc2ccn([C@H](C)c3nnc4c(F)cc(-c5cnn(C)c5)cn34)c(=O)c2c1,,"patients, plasma","oral, 50 mg once daily, day 1",,Cmax,700 ng/mL
CCC(C)n1ncn(-c2ccc(N3CCN(c4ccc(OCC5COC(Cn6cncn6)(c6ccc(Cl)cc6Cl)O5)cc4)CC3)cc2)c1=O (centres unmarked),,"human, plasma","oral, dose not given, day 12 predose, geometric mean",,trough plasma concentration,64 ng/mL
O=S(=O)(NCC1Cc2cc(Br)ccc2O1)c1cccc(Cl)c1O (centres unmarked),"colloidal aggregate formation, dynamic light scattering",50 mM potassium phosphate buffer,"200 µM, pH 7.0, 1% DMSO",higher = more aggregation,DLS scattered light intensity,432000 counts/s
C[C@@H]1COCCN1c1cc(C2([S@](C)(=N)=O)CC2)nc(-c2cc[nH]c3nccc2-3)n1,,Japanese advanced solid tumour patients,"oral, 240 mg twice daily, CTCAE grade ≥3",,Pyrexia incidence,0%
CO/N=C(\C(=O)N[C@@H]1C(=O)N2C(C(=O)[O-])=C(C[N+]3(C)CCCC3)CS[C@H]12)c1csc(N)n1,,human whole blood,"concentration not given, 24 h, 4 °C",,deviation from nominal concentration,11.1%
CCOc1cccc(C(=O)Nc2ccc(-c3nc4ccccc4[nH]3)cc2)c1,haemolysis,sheep erythrocytes,"1 h, pH 7.5",,HC50,> 128 µg/mL
Cc1cc(-c2nccc3c2ccn3CC(=O)Nc2ccc(-c3cnccn3)cn2)ccn1,,human,"5 mg once daily, multiple ascending dose",,subjects with coronavirus infection,0%
CC(Cc1ccc(NS(=O)(=O)c2cc(Cl)cc(Cl)c2O)cc1)C(=O)O (centres unmarked),"colloidal aggregate formation, dynamic light scattering",50 mM potassium phosphate buffer,"200 µM, pH 7.0, 1% DMSO",higher = more aggregation,DLS scattered light intensity,660000 counts/s
CCN1/C(=C/C(C)=O)Sc2ccc(F)cc21,,cynomolgus monkey,"oral, 100 mg/kg, 4 h post-dose",relative to: pre-dose,QTc interval change,99.3 ± 3.2%
CC[C@H](C)[C@H](NC(=O)[C@H](Cc1ccccc1)NC(=O)[C@H](CCC(=O)O)NC(=O)[C@H](CCCCNC(=O)COCCOCCNC(=O)COCCOCCNC(=O)CC[C@H](NC(=O)CCCCCCCCCCCCCCCCC(=O)O)C(=O)O)NC(=O)[C@H](C)NC(=O)[C@H](C)NC(=O)[C@H](CCC(N)=O)NC(=O)CNC(=O)[C@H](CCC(=O)O)NC(=O)[C@H](CC(C)C)NC(=O)[C@H](Cc1ccc(O)cc1)NC(=O)[C@H](CO)NC(=O)[C@H](CO)NC(=O)[C@@H](NC(=O)[C@H](CC(=O)O)NC(=O)[C@H](CO)NC(=O)[C@@H](NC(=O)[C@H](Cc1ccccc1)NC(=O)[C@@H](NC(=O)CNC(=O)[C@H](CCC(=O)O)NC(=O)C(C)(C)NC(=O)[C@@H](N)Cc1cnc[nH]1)[C@@H](C)O)[C@@H](C)O)C(C)C)C(=O)N[C@@H](C)C(=O)N[C@@H](Cc1c[nH]c2ccccc12)C(=O)N[C@@H](CC(C)C)C(=O)N[C@H](C(=O)N[C@@H](CCCNC(=N)N)C(=O)NCC(=O)N[C@@H](CCCNC(=N)N)C(=O)NCC(=O)O)C(C)C,hypoglycaemic clamp,type 2 diabetes patients,"dose not given, plasma glucose 5.5 to 3.5 mmol/L",,diastolic blood pressure change,-4.2 mmHg
O=C(c1nc2n(n1)[C@H](c1ccccc1)C[C@@H]2F)C1CC1,,"human, fasted","oral, 75 mg single dose, mean",,fraction excreted fe(0-72 h),0.18%
CC(=O)Oc1ccccc1C(=O)O,,"male Hartley guinea pig, anaesthetized","intravenous infusion, 3 mg/kg, 10 min infusion, post-infusion",,QTc interval,362 ± 0.2 ms
CNC(=O)c1ccc(-c2cnc3ncc(Cc4ccc5ncccc5c4)n3n2)cc1F,,Japanese patients,"oral, 400 mg, any grade",,Pyrexia treatment discontinuation,1%
CCOC(=O)C(CC(C)CC)NS(=O)(=O)c1cccc(Cl)c1O (centres unmarked),"colloidal aggregate formation, dynamic light scattering",50 mM potassium phosphate buffer,"200 µM, pH 7.0, 1% DMSO",higher = more aggregation,DLS scattered light intensity,1.12e+07 counts/s
C[C@@H]1CN(c2c(F)c(N)c3c(=O)c(C(=O)O)cn(C4CC4)c3c2F)C[C@H](C)N1,,"male Hartley guinea pig, anaesthetized","intravenous infusion, 3 mg/kg, 10 min infusion, post-infusion",,QTc interval,355 ± 0.6 ms
Cl.[2H]C([2H])([2H])CC(=O)c1cnc(NC(=O)C2CC2)cc1Nc1cccc(-c2ncn(C([2H])([2H])[2H])n2)c1OC,,"human, fasted, multiple dose","oral, 20 mg once daily, tablet, day 1, median",,Tmax,1.53 h
O=C(O)CCC(=O)O.[2H]C([2H])([2H])Oc1cc(C)c2[nH]ccc2c1CN1CC[C@@H](C2CC2)C[C@H]1c1ccc(C(=O)O)cc1,,healthy Chinese subjects,"200 mg once daily, multiple ascending dose",,TEAE elevated monocyte,0%
O=C1NCCc2nc(OCc3cccc(F)c3)ccc21,modified Irwin test,"Sprague-Dawley rat, male","oral, 100 mg/kg, 4 h",higher = stronger effect,corneal reflex loss score,0
CCO[C@H]1CCN(Cc2c(OC)cc(C)c3[nH]ccc23)[C@H](c2ccc(C(=O)O)cc2)C1,,"PNH patients, active haemolysis","oral, 25 mg, 4 weeks, treatment",,incidence of oropharyngeal pain,14.3%
C[C@H](CS)C(=O)N1CCC[C@H]1C(=O)O,,"male Hartley guinea pig, anaesthetized","intravenous infusion, 3 mg/kg, 10 min infusion, post-infusion",,QTc interval,349 ± 0.4 ms
CNC(=O)c1ccc(-c2cnc3ncc(Cc4ccc5ncccc5c4)n3n2)cc1F,"CTCAE v4.0, any causality",human cancer patients,"oral, 600 mg twice daily, expansion, other tumours, RP2D",,non-cardiac chest pain incidence (all grades),6%
CCc1nc(C(N)=O)c(Nc2ccc(N3CCC(N4CCN(C)CC4)CC3)c(OC)c2)nc1NC1CCOCC1,,spiked mouse plasma QC samples,room temperature,,bench-top stability time,≥ 6 h
CCN1CCN(Cc2ccc(NC(=O)c3ccc(C)c(NC(=O)c4cncc(-c5cccs5)c4)c3)cc2C(F)(F)F)CC1,LC-MS/MS,"C57BL/6 mouse, plasma","intraperitoneal, 20 mg/kg single dose, 6 h",,plasma concentration,88 ng/mL and 197 ng/mL and 131 ng/mL
COc1ccc([C@@H](O)c2cc(-c3ncnc4cc(N5CCOCC5)ccc34)c(F)cc2Cl)nn1,,"human, plasma","oral, 300 mg twice daily, single dose, geometric mean",,AUC(0-12),9290 ng·h/mL
O=C(Nc1cnccc1Cl)N1CCN(Cc2ccc3c(c2)OC(F)(F)O3)CC1,,"healthy young men, plasma","oral, 10 mg once daily, day 10",,CL/F,17.7 L/h
Cc1ccc(Sc2ccccc2N2CCNCC2)c(C)c1,,healthy adult men,"oral, 5 mg single dose, treatment-emergent adverse events",,pyrexia incidence,0%
C[C@H](O)c1cc(C(=O)N[C@@H](C)Cn2ccc(-c3ccc(C#N)c(Cl)c3)n2)n[nH]1,,"healthy male human, plasma","intravenous infusion, 100 µg 14C-labelled, 15 min infusion, microtracer, geometric mean",,AUC(0-tlast),9060 h·pg eq/mL
C[C@H]1C=C(Cc2ccccc2)C(=O)O1,,light clay soil,"pH 7.3, OC 5.6%",,Freundlich KF,1.8 mL/g
O=C(O)c1cccc(C(=O)O)c1,,betaine/ethylene glycol DES-water,DES mass fraction 0.60,,apparent dissolution enthalpy,2.82 kcal/mol
COc1cc(C(=O)N2CCC3(CC2)CC(=O)c2c(cnn2C(C)C)C3)cc(-c2ccc(C(=O)O)cc2)n1,measured: total cholesterol,"human, fasting serum","1 mg every 12 h, day 13, adjusted geometric mean",relative to: baseline,percentage change from baseline,-4.5%
COc1ncc(-c2nc3c(n2C(C)C)[C@H](c2ccc(Cl)cc2)N(c2cc(Cl)cn(C)c2=O)C3=O)c(OC)n1,LC-MS/MS,"human, plasma","oral, 20 mg, cycle 1 day 14, low-dose arm",,AUC(0-last),1040 ng·h/mL
Cc1c(NS(=O)(=O)c2cc(Cl)cc(Cl)c2O)cccc1-n1cn[nH]c1=O,"colloidal aggregate formation, dynamic light scattering",50 mM potassium phosphate buffer,"200 µM, pH 7.0, 1% DMSO",higher = more aggregation,DLS scattered light intensity,405000 counts/s
CCOc1c([C@H](C)n2nc(C)c3c(N)ncnc32)cc(Cl)c(F)c1[C@@H]1CNC(=O)C1,measured: ΔQTcF ≤ 30 ms,previously treated B-cell malignancy,"oral, dose not given, all doses, overall population",,share of ECG observations,97%
CC12CC3(C)CC(C(=O)O)(C1)CC(C(=O)O)(C2)C3,haemolysis,sheep erythrocytes,"1 h, pH 7.5",,HC50,> 128 µg/mL
CC(C)c1nc(CN(C)C(=O)N[C@H](C(=O)N[C@@H](Cc2ccccc2)C[C@H](O)[C@H](Cc2ccccc2)NC(=O)OCc2cncs2)C(C)C)cs1,,Macaca nemestrina,"subcutaneous, slow pathway, TLC-ART",,lymph node sequestered fraction,~1
CC=CC1CCC(C2CCC(CCC)CC2)CC1 (centres unmarked),measured: compound,"human pregnant women, male fetuses, cord serum","dose not given, paired maternal-cord samples, mean",,concentration,1.8 ng/mL
Cc1ccc(C(=O)N(CCCN)C(c2nc3snc(C)c3c(=O)n2Cc2ccccc2)C(C)C)cc1 (centres unmarked),,patients,"intravenous, dose not given, all doses",,discontinuation due to adverse events,5.1%
Cn1ncc(S(=O)(=O)NC(c2ccccc2)c2ccc(Cl)cc2Cl)c1C(=O)O (centres unmarked),"colloidal aggregate formation, dynamic light scattering",50 mM potassium phosphate buffer,"200 µM, pH 7.0, 1% DMSO",higher = more aggregation,DLS scattered light intensity,539000 counts/s
O=C(Nc1nc2cccc(-c3ccc(CN4CCS(=O)(=O)CC4)cc3)n2n1)C1CC1,measured: animal bite,human rheumatoid arthritis patients,"oral, 75 mg once daily, 4 weeks, regardless of relatedness",,treatment-emergent adverse events,0%

# For quick reference, copied from above:
SMILES,test,test system,conditions,how to read,endpoint,result
C[C@@H](Nc1cc(F)cc(F)c1)c1cc(C(=O)N(C)C)cc2c(=O)cc(N3CCOCC3)oc12,measured: Pneumonia,advanced solid tumour patients,"oral, dose not given, dose expansion",,patients discontinuing for AE,0%
C[C@H]1C=C(Cc2ccccc2)C(=O)O1,,light clay soil,"pH 7.3, OC 5.6%",,Freundlich KF,1.8 mL/g
CCn1ncc2c1-c1cnc(N)c(c1)O[C@H](C)c1cc(F)ccc1-c1nn(C)nc1C2,,"female athymic nude mice, sample B PDX","oral, 15 mg/kg once daily for 1 days, 1 h",,unbound plasma concentration,1600 ± 104 nM
C[C@@H]1COCCN1c1cc(C2([S@](C)(=N)=O)CC2)nc(-c2cc[nH]c3nccc2-3)n1,,Japanese advanced solid tumour patients,"oral, 240 mg twice daily, CTCAE grade ≥3",,Pyrexia incidence,0%
O=C(Nc1nc2cccc(-c3ccc(CN4CCS(=O)(=O)CC4)cc3)n2n1)C1CC1,measured: animal bite,human rheumatoid arthritis patients,"oral, 75 mg once daily, 4 weeks, regardless of relatedness",,treatment-emergent adverse events,0%
CCc1nc(C(N)=O)c(Nc2ccc(N3CCC(N4CCN(C)CC4)CC3)c(OC)c2)nc1NC1CCOCC1,,spiked mouse plasma QC samples,room temperature,,bench-top stability time,≥ 6 h
CNC(=O)c1ccc(-c2cnc3ncc(Cc4ccc5ncccc5c4)n3n2)cc1F,,Japanese patients,"oral, 400 mg, any grade",,Pyrexia treatment discontinuation,1%
CCOc1cccc(C(=O)Nc2ccc(-c3nc4ccccc4[nH]3)cc2)c1,haemolysis,sheep erythrocytes,"1 h, pH 7.5",,HC50,> 128 µg/mL
